Measured values of several laboratories.
Lines come from different studies, so protocols differ.
Organism: Staphylococcus epidermidis

SMILES | effect on | method | strain | time | temperature | notes | MIC
Oc1c(Br)cc(Br)c2nc3cc(I)ccc3nc12 |  | broth microdilution | MRSE 35984 |  |  | single representative determination | 0.1 µM
CC1=C[C@@H](C)[C@H]2[C@@H]3C(=O)C(Cl)(Cl)C(=O)[C@H](C)C(=O)O[C@@H](C)/C=C/C=C\[C@@H](C)[C@@H]3C=C[C@@H]2C1 | microbial growth | broth dilution |  |  |  |  | 0.05 µg/mL
Oc1c(Br)cc(Br)c2nc3c(C(F)(F)F)cc(C(F)(F)F)cc3nc12 | microbial growth | broth dilution | 12228 |  |  |  | 0.15 µM
CCCCCCSCC1OC(OC2C(N)CC(N)C(OC3OC(CN)C(O)CC3N)C2O)C(O)C(N)C1O (stereo not shown) |  |  |  |  |  |  | 75 µg/mL
CCCCN(CCCC)CC(O)COc1c2ccoc2c(OC)c2oc(CC)cc(=O)c12 (stereo not shown) |  | broth microdilution | ATCC 12228 | 19 h | 35 °C |  | > 256 µg/mL
Oc1c(Br)cc(Br)c2nc3cc(Cl)ccc3nc12 |  | broth microdilution | MRSE 35984 |  |  | single representative determination | 0.1 µM
CCCCCCCCCCCCCCCCCCCCCCSCC1OC(OC2C(N)CC(N)C(OC3OC(CN)C(O)CC3N)C2O)C(O)C(N)C1O (stereo not shown) |  |  |  |  |  |  | 75 µg/mL
O=C(O)c1ccc(-n2cc(/C=N/Nc3cccc(Cl)c3F)c(-c3ccc4ccccc4c3)n2)cc1 |  | broth microdilution with resazurin | 700296 |  |  |  | 1.56 µg/mL
CCN(CC)CCCN1/C(=C/c2cc(C)[n+](C)c3ccccc23)Sc2ccccc21 | microbial growth | broth dilution | ATCC12228 |  |  |  | 1 µg/mL
Oc1c(Br)cc(Br)c2nc3cc(SC(F)(F)F)ccc3nc12 | microbial growth | broth dilution | 12228 |  |  |  | 0.1 µM
Oc1c(Cl)cc(Cl)c2cccnc12 | microbial growth | agar dilution | ATCC12228 |  |  |  | 37.4 µM
Oc1c(Br)cc(Br)c2nc3cc(Cc4ccccc4)ccc3nc12 |  | broth microdilution | MRSE 35984 |  |  |  | 0.15 µM
C[n+]1ccc(/C=C2\Sc3ccccc3N2CCCN2CCCC2)c2ccccc21 | microbial growth | broth dilution | ATCC12228 |  |  |  | 4 µg/mL
C[C@H]1COc2c(N3CCN(C)CC3)c(F)cc3c(=O)c(C(=O)N[C@@H](CCCNC(=N)N)C(=O)N[C@@H](Cc4ccc(-c5ccccc5)cc4)C(=O)N[C@@H](CCCNC(=N)N)C(=O)N[C@@H](Cc4ccc(-c5ccccc5)cc4)C(=O)N[C@@H](CCCNC(=N)N)C(N)=O)cn1c23 |  | broth microdilution | ATCC 700565 |  |  |  | 10 µM
CCN(CC)CCCN1/C(=C/c2cc[n+](C)c3ccccc23)Sc2ccccc21 | microbial growth | broth dilution | ATCC12228 |  |  |  | 1 µg/mL
N#Cc1ccc2cccc(O)c2n1 | microbial growth | agar dilution | ATCC12228 |  |  |  | 1500 µM

Excerpt of the above:
SMILES | effect on | method | strain | time | temperature | notes | MIC
Oc1c(Br)cc(Br)c2nc3cc(Cc4ccccc4)ccc3nc12 |  | broth microdilution | MRSE 35984 |  |  |  | 0.15 µM
